Results from different studies.
Parts stem from different laboratories: compare values within a part only. Changes are numbered by the printed parent chain.

Set 1
Target: PABPC1L2, full length, GST fusion (mouse, UniProt A0ABA7IW68)
Technique: RNAcompete
Form: RNA
Sample: in vitro
Tested at: 20 nM
Notes: 7-mer, probes averaged, single round
Relative to: mean of 7-mers
Direction: higher = stronger binding
Measurement: 7-mer Z-score
Construct (chain): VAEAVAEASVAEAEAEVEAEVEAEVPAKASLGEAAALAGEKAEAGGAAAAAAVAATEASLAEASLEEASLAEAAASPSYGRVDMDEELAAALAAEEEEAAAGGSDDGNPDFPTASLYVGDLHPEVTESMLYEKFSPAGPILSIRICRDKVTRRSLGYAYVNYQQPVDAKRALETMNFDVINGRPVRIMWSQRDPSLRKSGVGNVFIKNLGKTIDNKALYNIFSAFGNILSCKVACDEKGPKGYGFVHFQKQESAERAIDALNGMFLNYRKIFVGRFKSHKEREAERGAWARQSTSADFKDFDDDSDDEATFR
CUCCUGA: -0.258
AGUGGGC: 0.389
CCUUAAU: -0.342
UCGAGGU: -0.126
CAAAUCG: 0.169
AUAGCUA: -0.153
AACCGAA: 0.122
CUGAAGU: -0.237
GACACGC: -0.168
GCGCUUA: -0.306
AUUGUCC: -0.231
GAUGUCU: -0.213
AUUAUGU: -0.103
GAGCUAC: -0.117
AGACCAU: -0.235
UGUUUCC: -0.463
CGGCCCU: -0.302
AUGUAUC: -0.186
UACGGGC: 0.347
UGAAGGG: 0.153
ACAAAGU: 0.979
GGCUUCA: -0.0971
UGUGCCG: -0.275
ACGGCCA: 0.000733
AAAUAGA: 3.06

Set 2
Target: CCNB2, cyclin fold, Cln2 fusion (human)
Technique: yeast growth competition, sequencing
Sample: yeast
Notes: strong parent motif
Relative to: not given
Direction: higher = stronger binding
Measurement: normalised enrichment score
Starting sequence: PKMYT1 docking peptide (human); SFEPRNLLSLFED; partner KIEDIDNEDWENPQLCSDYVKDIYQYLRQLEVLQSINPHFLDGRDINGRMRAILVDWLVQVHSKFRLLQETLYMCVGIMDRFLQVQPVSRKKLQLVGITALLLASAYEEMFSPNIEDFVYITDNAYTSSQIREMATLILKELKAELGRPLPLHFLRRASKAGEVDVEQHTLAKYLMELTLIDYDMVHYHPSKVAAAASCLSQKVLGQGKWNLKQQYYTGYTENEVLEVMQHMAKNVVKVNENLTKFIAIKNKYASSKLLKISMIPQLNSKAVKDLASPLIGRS
SFFPRNLLSLFED [E3F]: 0.947
SFEPRNLLSLFTD [E12T]: 0.375
SFWPRNLLSLFED [E3W]: 0.931
SFERRNLLSLFED [P4R]: 1.3
SFEPANALSLFED [R5A L7A]: -0.952
SFEPRNLLSLFFD [E12F]: -0.0321
SFEPRNLESLFED [L8E]: -1.74
SFEPRNLLSWFED [L10W]: 1.15
SFEPRNCLSLFED [L7C]: -0.389
SFEPRNLLELFED [S9E]: 1.33
SFEPRNLLDLFED [S9D]: 1.16
SFEPRWLLSLFED [N6W]: -0.302
SFEPRNKLSLFED [L7K]: -0.602
SFEGRNLLSLFED [P4G]: 0.136
FFEPRNLLSLFED [S1F]: 1.54
SFEPRNLLSLPED [F11P]: -0.211
SFEPRNLLSLVED [F11V]: -0.485
SFEPRNLLSAFED [L10A]: 1.63
SFEPRNLLSLFKD [E12K]: -0.194
SFEPRNLLSLFLD [E12L]: 0.0542
KFEPRNLLSLFED [S1K]: 0.851
SFEPRNLLSMFED [L10M]: 1.24
TFEPRNLLSLFED [S1T]: 1.26
SFEPRNLISLFED [L8I]: 1.05
SSEPRNLLSLFED [F2S]: -0.284

Set 3
Target: RING finger protein unkempt homolog, zinc fingers 1-6, SBP tag (UNK, Homo sapiens, UniProt Q9C0B0, residues 30-357)
Chain of UniProt Q9C0B0 (30-357, looked up): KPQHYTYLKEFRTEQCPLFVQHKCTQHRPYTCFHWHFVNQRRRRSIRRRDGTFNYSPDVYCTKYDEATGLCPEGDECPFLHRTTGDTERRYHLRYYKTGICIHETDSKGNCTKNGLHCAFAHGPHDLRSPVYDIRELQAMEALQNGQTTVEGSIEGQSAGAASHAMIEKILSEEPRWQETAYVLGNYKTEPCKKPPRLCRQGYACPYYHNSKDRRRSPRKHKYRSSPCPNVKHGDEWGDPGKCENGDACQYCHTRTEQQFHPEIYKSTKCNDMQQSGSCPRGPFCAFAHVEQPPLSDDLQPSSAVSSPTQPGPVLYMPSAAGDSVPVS
Technique: RNA Bind-n-Seq
Form: RNA
Sample: in vitro
Tested at: 100 nM
Notes: RNA with constant flanks, vertebrate orthologous sites, ends assumed
Relative to: input RNA pool
Direction: higher = stronger binding
Measurement: bound/input enrichment
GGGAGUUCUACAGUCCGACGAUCCACAUCCGGUGAUAUUUGGCCUGGCCUUUCAGCUUAUGAUAAUAGUCCCAGAUCACCCCAUAGUCCUUCACCUAUUGCUACACCACCUAGUCAGAGUUCGUCUUGCUCUGAUGCUCCCAUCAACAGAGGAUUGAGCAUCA: 1.13 ratio
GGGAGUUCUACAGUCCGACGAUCUCCCAGCACUUUGAUAAAAAGCGUGGACUGGUUGCUUGUAUUUUCCUUAUUCUUUUUAAUUAGUUUUAUUAUGUAUGCUACCAUUCGAACUGAGAGUAUUCGGUGGCUAAUUCCAGGACACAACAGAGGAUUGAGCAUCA: 3.75 ratio
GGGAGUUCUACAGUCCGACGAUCCAUGUCCUUACUCCUGUGACCUUCAAACAUGCACAGUGCUCAUCUUUCCCCAGAUGAUUCUAGUAAUUGCCUAGAAAUAUUCUCGUACCUGUUAUUUAUCAAUUUUUCCCAGUAUUUUUACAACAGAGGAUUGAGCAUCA: 1.86 ratio
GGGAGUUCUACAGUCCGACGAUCAAAUGCGAUGGUUGAAGGCUCUGAGCUCAAAAAGAUUCGAUCCAACUCUAGGGUGUAUCAUCGAUACUUCCUUUUAGAUGCGGAUAUGCAAUCUCUACGCUGGGAACCUUCAAAAAAGGACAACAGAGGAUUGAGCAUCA: 0.173 ratio
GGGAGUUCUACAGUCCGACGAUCUAUUUUUGCACAUGACAGUGUUUGUGUUACUGAUCUCCUGAGGAAGAAGGGAGAGUGCUGUAGUGGUGGUGCCUGGGUGCCUGGCUUCCUGGCUCCCAGUGCCCCACCACCCCACCUAGCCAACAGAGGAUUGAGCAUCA: 0.692 ratio
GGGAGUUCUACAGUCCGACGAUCUCACUCUAAUUGUAAUCUGAAUAAAGUGUAACAUUCUGUAUGUAGCCUUUUAGUAUGAAAUAGACAAAUAGAAAAUGGUCCAAUUAGUUUCCUUUUUAAUAUGCUUAAAAUAAGCAGGUGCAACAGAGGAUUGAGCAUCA: 1.95 ratio
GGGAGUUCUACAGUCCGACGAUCAAUUGAACAAAAGCGUUUCCACUGGGUUUUGCCUGUAAGAAAAAAAUGUACCCGAGCACAUAGAGCUUUUUAAUAGCGCUAACCAAUGCCUUUUUAGAUGUAUUUUUGAUGUAUAUAUCUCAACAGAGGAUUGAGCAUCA: 0.659 ratio
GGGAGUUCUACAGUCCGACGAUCGGUUGAUGUUUUGAAGAACCACUUAGUAAAAGAAGGUCGGGUAGAUGAAGAAAUUGCACUUAGAAUUAUCAAUGAGGGUGCUGCCAUUCUUCGGAGAGAGAAAACCAUGAUAGAAGUAGACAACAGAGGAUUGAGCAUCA: 0.815 ratio
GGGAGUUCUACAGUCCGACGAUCCAUUUUUACAAUCUUCUACUUAAACUGGUAUUUUCAAAGAAUAGAAUUUUUUUUUUACCGUUUAGUAUCUGGUUUCUACAUGGAAGACUAAACUCAUGCUUAUAGCUAAAUGUGGUCUUUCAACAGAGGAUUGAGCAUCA: 0.245 ratio
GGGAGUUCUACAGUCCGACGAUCUAUCUUUAGGAUGAAGCUCUUACACCAAGUGUCACGAGUCUGGAGAACAGAUGGGUUGAGUAGUUGUUCUUACAAAUUAGUAUCUGUGGAACACAAUCCUUUGUAUGUCAACAUCACAGUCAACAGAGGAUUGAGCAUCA: 0.542 ratio
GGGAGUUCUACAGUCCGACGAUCAGUAGUAUUAAAGAAGAAACAUUUUUGUCUUCCUUUAUCAUUUAAUCCCUACCUAAUACCUAGACUCCUUUUUAAAAUUUCAGACUUCACUGCUCUUUGAAUUGAUAAUUCCAAUUUUCACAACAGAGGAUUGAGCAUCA: 0.641 ratio

Set 4
Target: CEP164, C-terminal peptide (human)
Technique: DHFR complementation, deep sequencing
Sample: yeast
Notes: single substitutions, model-inferred values
Relative to: wild type
Direction: higher = weaker binding
Measurement: binding free energy change
Starting sequence: PDZK1, PDZ domain 2 (human); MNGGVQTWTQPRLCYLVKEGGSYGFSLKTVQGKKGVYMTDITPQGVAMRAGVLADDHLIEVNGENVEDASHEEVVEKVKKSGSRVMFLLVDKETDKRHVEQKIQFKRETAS; partner HNRVKVYRF
H98E: 0.0169 kcal/mol
Q6Y: -0.022 kcal/mol
S22E: 0.114 kcal/mol
M48W: -0.267 kcal/mol
Q44L: 0.191 kcal/mol
G3H: 0.00476 kcal/mol
N65A: 0.281 kcal/mol
G24Q: 1.07 kcal/mol
L58K: 0.654 kcal/mol
R97D: -0.000364 kcal/mol
M1C: -0.108 kcal/mol
D40R: 1.07 kcal/mol
D55G: -0.16 kcal/mol
K33E: -0.131 kcal/mol
K92T: 0.066 kcal/mol
V85M: 1.12 kcal/mol
A50V: 0.326 kcal/mol
E108C: -0.571 kcal/mol
G3T: -0.0528 kcal/mol
L89V: 0.12 kcal/mol
G24N: 0.723 kcal/mol
I103L: -0.107 kcal/mol
M48C: -0.112 kcal/mol
T7M: -0.0976 kcal/mol
A54G: 0.194 kcal/mol

Set 5
Target: TAR DNA-binding protein 43, full length, His tag (TARDBP, Homo sapiens, UniProt Q13148, residues 1-414)
Technique: RNA Bind-n-Seq
Form: RNA
Sample: in vitro
Tested at: 20 nM
Notes: 6-mer, flanks averaged, single round
Together with: 150 mM LiCl
Relative to: input library
Direction: higher = stronger binding
Measurement: 6-mer enrichment (R)
CCCAGU: 1.01
GGUGCU: 1.07
AAUUAC: 0.905
UGUGAG: 1.57
UCUCUA: 0.876
UAUAUG: 1.08
AAGGUA: 0.93
UUGGUA: 1.11
CUCCUU: 1.03
CCCCGG: 1.08
CAUGGC: 0.918
UGAACG: 0.912
AGCGGA: 0.984
CCAGGA: 0.895
CACCCU: 1.05
UGAUUU: 1.01
UGUUGG: 1.3
GCAGCC: 0.965
CUUCUU: 1
CUCCAU: 0.96
AGGAUG: 1.05
AGGAGU: 1.03
GUUCCA: 0.913
UGAGCC: 0.982
ACUCGU: 0.818

Other studies, line by line
PhoQ, residues 284 288 289 292 302 303 SASVAL — fold induction (PhoP, residues 12 14 15 18 19 NYFRM (Escherichia coli, UniProt P23836); Sort-seq, item: YFP reporter; E. coli; PhoQ-PhoP variant library, together with: 10 µM Mg2+; relative to: high Mg2+ state, higher = stronger signaling): 1.9

Excerpt of the above (set 5):
UAUAUG: 1.08
AAGGUA: 0.93
UUGGUA: 1.11
CUCCUU: 1.03
CCCCGG: 1.08
CAUGGC: 0.918
UGAACG: 0.912
AGCGGA: 0.984
CCAGGA: 0.895
CACCCU: 1.05
UGAUUU: 1.01
UGUUGG: 1.3
GCAGCC: 0.965
